Values quoted from earlier work as cited in several papers.
Compare with care: the assays were run in different laboratories. Numbers after ± are the reported error.

| Structure (SMILES) | system | setting | scale | measurement | result |
| --- | --- | --- | --- | --- | --- |
| CNCc1cc(-c2ccccc2F)n(S(=O)(=O)c2cccnc2)c1 | human | oral, single dose, NG, together with: clarithromycin, multiple doses | reference: with over without clarithromycin | Cmax ratio | ~1.35 fold |
| CN(C)C/C=C/C(=O)Nc1cc2c(Nc3ccc(F)c(Cl)c3)ncnc2cc1O[C@H]1CCOC1 | human, plasma | concentration not given, total concentration |  | Cmax | 78 nM |
| COc1cccc(-c2c(C)n(Cc3c(F)cccc3C(F)(F)F)c(=O)n(C[C@H](NCCCC(=O)O)c3ccccc3)c2=O)c1F | human | 150 mg single dose, together with: rifampin 600 mg once daily, day 1 | reference: with rifampin over alone | Cmax ratio | 4.37 |
| CN1CCN(c2ccc3nc(-c4c(N)c5c(F)cccc5[nH]c4=O)[nH]c3c2)CC1 | human | oral, 500 mg once daily, day 15 |  | Cmax | 267 ± 178 ng/mL |
| CO[C@H]1O[C@H](COS(=O)(=O)O)[C@@H](O[C@@H]2O[C@@H](C(=O)O)[C@@H](O[C@H]3O[C@H](COS(=O)(=O)O)[C@@H](O[C@@H]4O[C@H](C(=O)O)[C@@H](O[C@H]5O[C@H](COS(=O)(=O)O)[C@@H](O)[C@H](O)[C@H]5NS(=O)(=O)O)[C@H](O)[C@H]4O)[C@H](OS(=O)(=O)O)[C@H]3NS(=O)(=O)O)[C@H](O)[C@H]2OS(=O)(=O)O)[C@H](O)[C@H]1NS(=O)(=O)O | human, plasma | concentration not given, total concentration |  | Cmax | 840 nM |
| COc1cc(N2CCC(N3CCN(C)CC3)CC2)ccc1Nc1ncc(Cl)c(Nc2ccccc2P(C)(C)=O)n1 | healthy human subjects | oral, 180 mg single dose, together with: high-fat meal | reference: fasted | Cmax reduction | ~24% |
| CCCCC(CC)COC(=O)C=Cc1ccc(OC)cc1 (centres unmarked) | human, plasma | topical, 2 mg/cm^2 to 75% body surface, day 1, sunscreen |  | Cmax geometric mean | 2 ng/mL |
| O=C(O)C[C@H](O)C[C@H](O)/C=C/c1c(C2CC2)nc2ccccc2c1-c1ccc(F)cc1 | human |  | reference: OATP*15 heterozygous over non-carriers | Cmax ratio | 8 fold |
| CCCCC[C@H](O)/C=C/[C@@H]1[C@H]2C/C(=C/CCCC(=O)O)O[C@H]2C[C@H]1O | human, plasma | concentration not given, total concentration |  | Cmax | 0.99 nM |
| CCCCC(CC)COC(=O)C(C#N)=C(c1ccccc1)c1ccccc1 (centres unmarked) | human, plasma | topical, 4 times daily days 2-4, day 4, sunscreen |  | Cmax geometric mean | 7.8 ng/mL |
| C[C@H](Cn1cnc2c(N)ncnc21)OCP(=O)(O)O | human | dose not given, switch from TDF 300 mg to TAF 10 mg regimen | reference: before switch | Cmax decrease | 89.8% |

Repeated from above:
| Structure (SMILES) | system | setting | scale | measurement | result |
| --- | --- | --- | --- | --- | --- |
| O=C(O)C[C@H](O)C[C@H](O)/C=C/c1c(C2CC2)nc2ccccc2c1-c1ccc(F)cc1 | human |  | reference: OATP*15 heterozygous over non-carriers | Cmax ratio | 8 fold |
